Results gathered from unrelated publications.
Parts stem from different laboratories: compare values within a part only.

Block 1 — technique: RNA Bind-n-Seq; molecule type: RNA; sample: in vitro; concentration: 365 nM; reference: no-protein control; reading: higher = stronger binding; endpoint: RBNS enrichment (R)
Target: RNA binding protein fox-1 homolog 2, RRM domain, GST-SBP tag (RBFOX2, Homo sapiens, UniProt O43251-10, residues 100-194)
Notes: natural RNA segment, single round, ends assumed
All sequences stand within: GGGAGUUCUACAGUCCGACGAUC … UGGAAUUCUCGGGUGCCAA
Residues (chain): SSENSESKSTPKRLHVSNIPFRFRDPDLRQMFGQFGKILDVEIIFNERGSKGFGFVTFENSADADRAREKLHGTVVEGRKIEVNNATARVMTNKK
AGUUCUCUGUUGAUCCUGAGACUAACAAUUGGAGACUGAGGCCAGAGCAACUGGCUCCUGGCAGCUGUGCUUGUCCGUUUCCUGUCAGAGUGAUCCCAGGUUUCCUCCUG: 0.284
UGAGCCUCACAGUAACCCUGUAAAGUUAGUAGAGCUUGUUCUUGUAUUGUGACCUUUUUUAAAAAAAAGGAACUGAGGUUCAGAAUGAUUAAGGGCCUGGCCCCCAGGGU: 0.999
AAAUGUCUGCAGGGCAUGUCAGAGACCUUUGCAGCAGUGCCUCCCAUCACAGGCCUGGAGGCCUAGGAGGGAAAAAAUGGUUUUGUGGGCCAGGCCCAAGGUCCCCUUGC: 0.474
AAAAAAUAAAUUUAUAUAUGAAAAUGUCAAAAUCAUUUUAAAAGUAUUAUUUUCAAAUAAAAUGGAGAAGCUGGUGAAAAGUCAUAUUGGCAAUUUUUAUGUAGUUUAAG: 0.618
GCUUUCCUAUAAGCCACCUCCAGGGUCCAGGGGCUUUCUCUCUCUCUCCGAAGCCCCUGGACCUGUUUCCUUGUCAUUUGACCCUCGUCUGUGCCCGCGGAGACCUCCUC: 0.53
GCACUGUUGAAUAUGGGUAUCGGCUUUCUUUUUCACUUUGACUCUUAACAUUAUCAGUCAACUUCCACAUUAAUGAAAGUUGACCAUAGUUAUUUCCAAAUAAAAAGAAA: 0.379
GGUUUUUUAUUACUGUUCCAUUUUGCAACAUCCUGCAACACCAUCCUGGGAGACAAGAGCAUUACCCAGCUUGGCUUUCACGGGGGAGGGUUGUAUUCAGUAAAAAAGAA: 0.911
CCUGCCUCAGCCUCCUGAGUAGCUGGGAUGACAGGUGCACGCCACCACGCCCGGCUAAUUUUUAUAUUUUUGGUAGAGAUGGGGUUUCACCAUGCUGGCCAGGCUGGUCU: 0.383
CCGAUUUUUGAAUGUGAUUUUAAAGAGUGGAAAAUGAGACUAUGCGUUUUUAUAAAAAAUGGUGCCUACUCCUCGCUGUCUCAGACUCUUUGUGCCUGGUGACUAUUUUU: 0.902
GAGUCCCAAGAGUCCAGGUUAGUUGACUCUGUUGGUCUUCCUGUGGAGUUCCUAUCCCCUUUGAGGCUUACAAUCUUUCCUCCUUUUCUUCCAUAAGAGUUCCCAAGCUC: 0.587
AGAGCAACUUAGAAGUAUUUGCAAACUUUUCCAGAACAUUCUCAAAGCCUGUGAUGGAGGAGCACAAGACCCUGUCUGCUGAGGGCCCAUGCUCCUCUCAUGGGUUUCUU: 1.54
UUGUCUUAAGAUGGAAAUACAGUUAUUUCAUCUUUUAUUCAAGGAAGUUUUAACUUUAAUACAGCUCAGUAAAUGGCUUCUUCUAGAAUGUAAAGUUAUGUAUUUAAAGU: 0.748

Block 2 — technique: RNAcompete; molecule type: RNA; sample: in vitro; concentration: 20 nM; notes: 7-mer, probes averaged, single round; reference: mean of 7-mers; reading: higher = stronger binding; endpoint: 7-mer Z-score
Target: PABPC1L2, full length, GST fusion (mouse, UniProt A0ABA7IW68)
Residues (chain): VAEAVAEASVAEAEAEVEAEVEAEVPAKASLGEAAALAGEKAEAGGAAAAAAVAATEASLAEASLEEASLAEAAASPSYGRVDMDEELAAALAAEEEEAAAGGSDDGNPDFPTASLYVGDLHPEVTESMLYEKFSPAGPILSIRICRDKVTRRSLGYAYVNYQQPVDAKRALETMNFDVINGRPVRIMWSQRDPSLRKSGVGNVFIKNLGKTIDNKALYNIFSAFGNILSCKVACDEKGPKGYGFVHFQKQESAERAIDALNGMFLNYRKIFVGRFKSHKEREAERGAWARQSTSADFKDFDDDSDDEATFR
GAUCUAA: 0.046
CGAAAGG: 0.0696
GAUGCGC: -0.166
UGUCUGC: -0.351
UUAAGUU: -0.269
CGCGUUC: -0.365
AGGCGUU: -0.0518
UAGACCA: -0.0428
UGUUAUU: -0.322
ACGGAAG: 0.126
CGAGUUG: -0.213
UGUGAAG: -0.0446
UUGUGGC: -0.184
AGGGGGU: 0.421
UUCGGGU: -0.151
GCGCUUG: -0.244
GCGACAC: -0.0536
UCGAUGG: -0.0228
UUCUCGG: -0.338
GAUCUUC: -0.284
AGCAUAG: -0.0989
UGGAGUU: -0.204
UCCGAAG: -0.161
CGAAAUU: 0.0587
GACACUG: -0.0663

Block 3 — technique: aptamer microarray, sandwich; molecule type: DNA with 2'F-ANA; sample: in vitro; concentration: 200 nM; added: Cy3 exosite-II aptamer, 400 nM; reading: higher = stronger binding; endpoint: mean fluorescence intensity; strand: GGTTGGTGTGGTTGG
Target: Prothrombin, mature alpha-thrombin (F2, Homo sapiens, UniProt P00734)
Notes: whole 15-mer aptamer, many near background
2'F-ANA at 4 5 8 9 10 11 12 13: 49.8 a.u.
2'F-ANA at 1 2 3 7 8 10 11 14 15: 53.6 a.u.
2'F-ANA at 3 4 7 8 13 14: 391 a.u.
2'F-ANA at 2 3 4 7 10 12 13: 293 a.u.
2'F-ANA at 1 3 5 9 11 12: 102 a.u.
2'F-ANA at 1 2 5 7 12 14: 43.1 a.u.
2'F-ANA at 1 4 6 7 10 11 12 13 14 15: 48.7 a.u.
2'F-ANA at 2 3 4 6 7 11 12 13 15: 491 a.u.
2'F-ANA at 2 4 5 7 10 11 15: 47 a.u.
2'F-ANA at 3 4 7 9 12 13 14: 290 a.u.
2'F-ANA at 1 2 3 4 5 6 7 8 9 10 13 15: 51.1 a.u.
2'F-ANA at 1 3 4 8 10 11 12 13 15: 65.6 a.u.
2'F-ANA at 1 9 10 13 14 15: 46.9 a.u.
2'F-ANA at 1 3 7 8 9 10 11 14: 58.8 a.u.
2'F-ANA at 1 4 6 8 10 13 14: 65.4 a.u.
2'F-ANA at 2 4 5 6 7 8 9 11 13: 58.6 a.u.
2'F-ANA at 1 4 5 6 8 10 11 13: 45.9 a.u.
2'F-ANA at 1 3 5 11 12 13 14: 46.4 a.u.
2'F-ANA at 2 4 6 8 9 10 11 12 13: 79.4 a.u.
2'F-ANA at 1 2 3 5 6 9 11 15: 55.4 a.u.

Block 4 — technique: protein binding microarray; molecule type: double-stranded DNA, one strand shown; sample: in vitro; concentration: not given; reference: not given; reading: higher = stronger binding; endpoint: E-score
Target: Histone acetyltransferase KAT6A, both winged helices, GST fusion (KAT6A, Homo sapiens, UniProt Q92794, residues 1-181)
Notes: 8-mer, flanks averaged, mean of 2 arrays, mostly near background
Construct (chain): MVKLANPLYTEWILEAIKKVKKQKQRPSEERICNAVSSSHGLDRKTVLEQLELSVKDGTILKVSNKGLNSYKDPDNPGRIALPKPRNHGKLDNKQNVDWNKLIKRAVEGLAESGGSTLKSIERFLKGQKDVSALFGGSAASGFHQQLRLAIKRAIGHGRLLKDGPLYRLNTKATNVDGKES
ACTGTGAA: -0.0682
AGGTCACA: -0.0573
GTCCTTGA: -0.0519
CCATTGAA: -0.0656
CTATTATA: -0.0541
GGACTTTA: -0.0288
CGGAGCGC: 0.301
ACTGTCAT: -0.137
CTGCGGGC: 0.165
AACATCAT: -0.126
AATAACCT: -0.183
ACTTATTG: -0.0873
AGCTATAT: -0.174
GCCGTCGC: 0.382
GGGCAACA: -0.026
CGGCACGA: 0.136
ACGATCAT: -0.05
AAGAAAGA: -0.116
AAATGTAT: -0.0182
ATTGAATA: -0.0271
GCCCGTCA: 0.299
AGATCCCT: -0.195

Block 5 — technique: competition protein-binding microarray; molecule type: double-stranded DNA, one strand shown; sample: in vitro; concentration: 2 µM; added: Cbf1 competitor, 0.05 µM; reading: higher = stronger binding; endpoint: fluorescence intensity; all sequences stand within: … GTCTTGATTCGCTTGACGCTGCTG
Target: Phosphate system positive regulatory protein PHO4, full length, GST-tagged (PHO4, Saccharomyces cerevisiae, UniProt P07270, residues 1-312)
Notes: whole 60-bp probe, lowest competitor level
Construct (chain): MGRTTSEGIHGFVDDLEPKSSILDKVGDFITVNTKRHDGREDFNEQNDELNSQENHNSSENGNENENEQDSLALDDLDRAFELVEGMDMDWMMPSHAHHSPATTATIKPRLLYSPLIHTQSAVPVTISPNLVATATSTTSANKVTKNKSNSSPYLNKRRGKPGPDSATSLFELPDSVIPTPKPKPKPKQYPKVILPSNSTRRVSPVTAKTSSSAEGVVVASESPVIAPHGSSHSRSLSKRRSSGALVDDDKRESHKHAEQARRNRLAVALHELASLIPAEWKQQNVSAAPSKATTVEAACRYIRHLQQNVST
GAATAGGGATATCTGCACATGGGGCCTCGAGCATGG: 12200 a.u.
AAATTACTAAGTTGCATGGTGGGTGACGCCGTATGA: 5350 a.u.
TGCGCAACAACTTGTACGGTGGGTGTATGTCTAGAA: 4690 a.u.
GACAAGGACATTTTGCACGTTGACATTCCGGTAACT: 11800 a.u.
GTCTTGTCTCATTTTCACGTGAAATTCCCCACTTCA: 7330 a.u.
AAAGCGGTAATTTGTCACGTGACTTCACATATCTAT: 13400 a.u.
CGGGGTTAAGTTTGTCACTCAACTTGCTTGCAGCAG: 3170 a.u.
TCACTTTGTCGTCTTCATGTGGGAGTCGGGGCTGTT: 5300 a.u.
GTCTTGTCTCATTGGAGGGTGGGTGTCCCCACTTCA: 4650 a.u.
GTCTTGTCTCATTGCAGCGTGGGTGTCCCCACTTCA: 7660 a.u.
TGCGCAACAACTTGACCCGTGGGTGTATGTCTAGAA: 9610 a.u.
TAGAAACAAAGGCTGCATGTGATAGTACACCCTCCA: 7430 a.u.
ATTTTCCTGATCCCAAATGTGACGCCCAACATGGCA: 4750 a.u.
CGTCCTAGTGATTTTCACGTGCCTTCCATGAGGAAG: 14600 a.u.
CTAACGAAGGTTTTTCACGTGTACTACAAGCCAAGT: 12400 a.u.
ACAGAATATCCCGACCACATGGCAAGACCAAGAAAG: 9910 a.u.
ATGGCATCTTGCGGGAACGTGCAAAAAAGCTCAATG: 13300 a.u.

A few entries again (block 2):
CGCGUUC: -0.365
AGGCGUU: -0.0518
UAGACCA: -0.0428
UGUUAUU: -0.322
ACGGAAG: 0.126
CGAGUUG: -0.213
UGUGAAG: -0.0446
UUGUGGC: -0.184
